{"data": "Measurements of several laboratories", "note": "Numbered parts are unrelated; each lists some results of a single study. “And” joins repeats or separate records; there may be more than shown.", "chain of UniProt P42336 (whole entry, unmodified, looked up)": "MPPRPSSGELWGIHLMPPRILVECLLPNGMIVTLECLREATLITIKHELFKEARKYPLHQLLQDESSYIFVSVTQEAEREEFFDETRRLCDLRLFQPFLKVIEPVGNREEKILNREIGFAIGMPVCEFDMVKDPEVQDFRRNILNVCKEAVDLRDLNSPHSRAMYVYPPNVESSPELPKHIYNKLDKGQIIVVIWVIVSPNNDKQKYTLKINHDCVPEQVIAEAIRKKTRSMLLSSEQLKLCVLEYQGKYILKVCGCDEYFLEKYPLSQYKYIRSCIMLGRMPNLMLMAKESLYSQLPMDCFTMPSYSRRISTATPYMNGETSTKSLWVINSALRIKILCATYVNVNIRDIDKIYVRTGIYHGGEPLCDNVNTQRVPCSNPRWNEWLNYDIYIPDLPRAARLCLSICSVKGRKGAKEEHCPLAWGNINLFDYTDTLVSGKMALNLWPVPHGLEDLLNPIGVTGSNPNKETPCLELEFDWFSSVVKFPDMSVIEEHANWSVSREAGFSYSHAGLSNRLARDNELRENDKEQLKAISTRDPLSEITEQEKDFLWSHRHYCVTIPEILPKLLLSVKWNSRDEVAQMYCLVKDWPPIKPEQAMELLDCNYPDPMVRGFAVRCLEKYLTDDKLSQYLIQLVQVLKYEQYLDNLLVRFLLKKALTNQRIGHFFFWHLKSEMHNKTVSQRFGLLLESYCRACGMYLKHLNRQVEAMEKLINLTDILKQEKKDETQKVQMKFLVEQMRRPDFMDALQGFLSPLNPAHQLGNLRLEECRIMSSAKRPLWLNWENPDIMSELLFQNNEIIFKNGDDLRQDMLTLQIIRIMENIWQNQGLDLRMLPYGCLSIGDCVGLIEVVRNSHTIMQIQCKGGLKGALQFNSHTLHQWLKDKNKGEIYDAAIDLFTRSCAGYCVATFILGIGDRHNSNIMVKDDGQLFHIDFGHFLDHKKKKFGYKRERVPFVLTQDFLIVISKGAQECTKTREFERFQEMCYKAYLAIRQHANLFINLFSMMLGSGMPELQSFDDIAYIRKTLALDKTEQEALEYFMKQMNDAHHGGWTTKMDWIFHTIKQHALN", "chain of UniProt Q9UIK4 (whole entry, looked up)": "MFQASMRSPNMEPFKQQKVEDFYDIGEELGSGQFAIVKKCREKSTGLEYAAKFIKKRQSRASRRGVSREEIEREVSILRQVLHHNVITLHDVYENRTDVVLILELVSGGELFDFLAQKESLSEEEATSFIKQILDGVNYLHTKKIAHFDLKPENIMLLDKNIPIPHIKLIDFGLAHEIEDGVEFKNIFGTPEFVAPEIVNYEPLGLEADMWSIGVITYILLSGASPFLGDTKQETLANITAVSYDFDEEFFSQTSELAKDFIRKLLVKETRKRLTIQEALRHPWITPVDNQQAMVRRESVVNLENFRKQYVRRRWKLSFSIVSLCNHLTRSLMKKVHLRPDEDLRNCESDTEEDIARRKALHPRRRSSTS", "chain of UniProt Q99759 (whole entry, looked up)": "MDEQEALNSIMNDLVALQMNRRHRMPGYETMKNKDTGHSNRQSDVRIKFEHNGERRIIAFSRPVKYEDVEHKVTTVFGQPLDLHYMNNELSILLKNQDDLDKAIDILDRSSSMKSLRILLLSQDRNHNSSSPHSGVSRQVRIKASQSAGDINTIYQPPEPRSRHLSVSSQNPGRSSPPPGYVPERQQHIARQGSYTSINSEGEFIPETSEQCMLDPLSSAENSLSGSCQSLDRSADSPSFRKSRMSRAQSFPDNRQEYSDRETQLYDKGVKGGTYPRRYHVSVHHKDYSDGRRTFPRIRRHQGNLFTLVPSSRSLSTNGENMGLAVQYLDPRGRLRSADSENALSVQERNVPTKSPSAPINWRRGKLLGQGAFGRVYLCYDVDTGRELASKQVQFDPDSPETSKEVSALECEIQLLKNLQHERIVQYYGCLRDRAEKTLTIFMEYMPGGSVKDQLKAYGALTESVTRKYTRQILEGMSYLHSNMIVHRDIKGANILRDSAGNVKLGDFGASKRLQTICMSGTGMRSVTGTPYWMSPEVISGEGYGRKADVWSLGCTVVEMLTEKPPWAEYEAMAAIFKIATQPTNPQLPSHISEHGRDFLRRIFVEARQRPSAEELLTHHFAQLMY", "chain of UniProt P07948 (whole entry, looked up)": "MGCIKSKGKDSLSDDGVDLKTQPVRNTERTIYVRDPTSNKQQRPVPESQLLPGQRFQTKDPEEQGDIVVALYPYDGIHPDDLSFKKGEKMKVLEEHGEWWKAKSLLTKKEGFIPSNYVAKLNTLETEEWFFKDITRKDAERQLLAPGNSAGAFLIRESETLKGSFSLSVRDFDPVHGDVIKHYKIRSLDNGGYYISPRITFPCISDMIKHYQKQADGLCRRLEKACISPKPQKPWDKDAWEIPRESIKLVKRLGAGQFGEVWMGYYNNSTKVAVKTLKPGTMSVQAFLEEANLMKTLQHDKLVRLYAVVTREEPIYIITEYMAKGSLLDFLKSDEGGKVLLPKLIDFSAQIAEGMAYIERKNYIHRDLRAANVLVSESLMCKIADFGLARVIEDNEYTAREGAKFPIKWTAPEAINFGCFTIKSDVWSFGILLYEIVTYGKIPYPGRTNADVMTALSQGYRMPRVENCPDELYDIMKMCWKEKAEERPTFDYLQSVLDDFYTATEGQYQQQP", "chain of UniProt P45984 (whole entry, looked up)": "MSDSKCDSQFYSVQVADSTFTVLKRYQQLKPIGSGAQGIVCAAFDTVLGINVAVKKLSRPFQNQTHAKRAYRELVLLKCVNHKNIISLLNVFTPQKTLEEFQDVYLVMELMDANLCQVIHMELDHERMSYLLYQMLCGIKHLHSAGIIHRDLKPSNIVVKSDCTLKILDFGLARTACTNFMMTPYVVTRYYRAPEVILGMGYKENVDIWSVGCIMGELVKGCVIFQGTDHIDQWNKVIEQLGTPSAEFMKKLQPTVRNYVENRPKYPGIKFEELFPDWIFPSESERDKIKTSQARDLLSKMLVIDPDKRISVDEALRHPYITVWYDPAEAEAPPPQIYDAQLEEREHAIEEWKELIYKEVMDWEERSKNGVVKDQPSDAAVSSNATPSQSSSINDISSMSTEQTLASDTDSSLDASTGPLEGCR", "chain of UniProt Q9NRP7 (whole entry, looked up)": "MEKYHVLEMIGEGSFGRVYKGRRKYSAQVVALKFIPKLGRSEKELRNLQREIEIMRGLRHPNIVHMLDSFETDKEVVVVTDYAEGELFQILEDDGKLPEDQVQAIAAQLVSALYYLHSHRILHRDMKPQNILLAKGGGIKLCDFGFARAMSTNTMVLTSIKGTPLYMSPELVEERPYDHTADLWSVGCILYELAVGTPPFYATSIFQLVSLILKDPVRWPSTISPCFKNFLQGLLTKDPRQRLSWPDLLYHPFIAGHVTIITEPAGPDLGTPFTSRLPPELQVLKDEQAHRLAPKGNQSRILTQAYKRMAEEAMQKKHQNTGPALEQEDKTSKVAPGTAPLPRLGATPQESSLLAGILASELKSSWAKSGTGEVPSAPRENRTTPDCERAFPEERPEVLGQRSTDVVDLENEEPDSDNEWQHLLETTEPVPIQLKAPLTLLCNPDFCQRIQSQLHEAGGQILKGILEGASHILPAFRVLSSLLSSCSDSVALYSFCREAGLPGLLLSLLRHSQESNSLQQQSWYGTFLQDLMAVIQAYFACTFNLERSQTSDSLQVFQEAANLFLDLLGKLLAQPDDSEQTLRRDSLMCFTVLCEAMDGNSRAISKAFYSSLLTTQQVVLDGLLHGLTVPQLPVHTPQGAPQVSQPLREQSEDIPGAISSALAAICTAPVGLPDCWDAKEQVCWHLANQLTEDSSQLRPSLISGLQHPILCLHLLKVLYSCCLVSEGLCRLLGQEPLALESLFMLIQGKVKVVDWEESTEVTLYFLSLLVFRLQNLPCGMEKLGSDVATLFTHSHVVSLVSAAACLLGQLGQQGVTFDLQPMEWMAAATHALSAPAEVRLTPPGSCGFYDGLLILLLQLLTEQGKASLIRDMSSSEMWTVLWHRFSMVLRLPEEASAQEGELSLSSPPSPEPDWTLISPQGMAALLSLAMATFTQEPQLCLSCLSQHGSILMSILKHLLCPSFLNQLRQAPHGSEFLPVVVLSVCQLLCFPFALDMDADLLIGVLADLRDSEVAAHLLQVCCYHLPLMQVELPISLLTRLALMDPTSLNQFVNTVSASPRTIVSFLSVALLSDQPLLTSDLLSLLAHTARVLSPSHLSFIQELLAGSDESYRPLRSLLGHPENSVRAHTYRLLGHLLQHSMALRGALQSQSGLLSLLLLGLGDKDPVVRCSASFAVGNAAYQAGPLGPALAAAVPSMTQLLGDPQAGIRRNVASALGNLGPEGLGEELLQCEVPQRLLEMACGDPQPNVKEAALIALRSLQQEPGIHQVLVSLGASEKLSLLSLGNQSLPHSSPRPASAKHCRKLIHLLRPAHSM", "chain of UniProt Q52WX2 (whole entry, looked up)": "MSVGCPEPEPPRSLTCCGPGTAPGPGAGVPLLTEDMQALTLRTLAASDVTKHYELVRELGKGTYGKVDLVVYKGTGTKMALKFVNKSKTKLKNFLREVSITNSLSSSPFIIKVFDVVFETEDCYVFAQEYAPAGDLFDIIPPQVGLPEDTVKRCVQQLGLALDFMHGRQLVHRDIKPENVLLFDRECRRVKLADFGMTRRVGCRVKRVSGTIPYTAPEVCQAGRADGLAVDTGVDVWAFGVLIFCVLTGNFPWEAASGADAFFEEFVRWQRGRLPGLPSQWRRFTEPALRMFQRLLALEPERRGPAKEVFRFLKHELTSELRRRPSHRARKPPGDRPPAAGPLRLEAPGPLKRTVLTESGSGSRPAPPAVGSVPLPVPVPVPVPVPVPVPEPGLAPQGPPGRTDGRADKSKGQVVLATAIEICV", "chain of UniProt P11802 (whole entry, looked up)": "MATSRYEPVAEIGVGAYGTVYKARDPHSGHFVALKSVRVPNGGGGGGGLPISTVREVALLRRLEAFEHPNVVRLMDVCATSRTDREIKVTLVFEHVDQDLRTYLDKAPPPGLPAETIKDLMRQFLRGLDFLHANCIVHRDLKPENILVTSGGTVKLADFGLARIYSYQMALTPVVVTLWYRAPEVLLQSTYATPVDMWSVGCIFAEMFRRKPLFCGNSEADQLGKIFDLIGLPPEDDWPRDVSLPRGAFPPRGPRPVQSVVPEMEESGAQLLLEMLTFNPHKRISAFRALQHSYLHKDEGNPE"}
{"data": "Sample 1", "Compound": "COc1cc(C(=O)OCCCN2CCCN(CCCOC(=O)c3cc(OC)c(OC)c(OC)c3)CC2)cc(OC)c1OC", "method": "von Frey test"}
{"species": "mouse, CFA inflammatory pain", "route": "intraplantar", "dose": "10 µg", "time": "24 h post-dose", "notes": "day 3 after CFA", "paw withdrawal threshold": "0.23 g and 0.29 g and 0.17 g and 0.19 g and 0.32 g"}
{"species": "mouse, CFA inflammatory pain", "route": "subcutaneous", "dose": "10 mg/kg", "time": "1 h post-dose", "notes": "second injection, day 3", "paw withdrawal threshold": "0.32 g and 0.23 g and 0.29 g and 0.2 g"}
{"observed": "mechanical pain", "species": "mouse, STZ diabetic neuropathy", "route": "intravenous", "dose": "30 mg/kg", "time": "5 h post-dose", "notes": "first injection, day 8", "paw withdrawal threshold": "0.23 g and 0.17 g and 0.13 g and 0.15 g and 0.32 g"}
{"species": "mouse, CFA inflammatory pain", "route": "intravenous", "dose": "dose not given", "time": "5 h post-dose", "notes": "third injection, day 5", "paw withdrawal threshold": "0.32 g and 0.23 g and 0.4 g"}
{"observed": "mechanical pain", "species": "mouse, STZ diabetic neuropathy", "route": "intravenous", "dose": "30 mg/kg", "time": "5 h post-dose", "notes": "third injection", "paw withdrawal threshold": "0.23 g and 0.13 g and 0.29 g and 0.05 g"}
{"data": "Sample 2", "SMILES": "C[C@@]1(Cc2ccc(C#N)cc2)C(=O)N(c2cc(Cl)cc(Cl)c2)c2ncc(C(=O)NC3(c4nc(C5CCC5)no4)CC3)n21", "tested at": "1 µM"}
{"target": "WEE1 (Homo sapiens, UniProt P30291)", "observed": "cell-free assay", "method": "competition with immobilised ligand", "remaining binding [%]": 100}
{"target": "LIM domain kinase 2 (LIMK2, Homo sapiens, UniProt P53671)", "observed": "cell-free assay", "method": "competition with immobilised ligand", "remaining binding [%]": 100}
{"target": "NEK3 (Homo sapiens, UniProt P51956)", "observed": "cell-free assay", "method": "competition with immobilised ligand", "remaining binding [%]": 100}
{"target": "MKNK2 (Homo sapiens, UniProt Q9HBH9)", "observed": "cell-free assay", "method": "competition with immobilised ligand", "remaining binding [%]": 100}
{"target": "Ribosomal protein S6 kinase alpha-4, N-terminal kinase domain (RPS6KA4, Homo sapiens, UniProt O75676)", "observed": "cell-free assay", "method": "competition with immobilised ligand", "remaining binding [%]": 95}
{"target": "MYLK2 (Homo sapiens, UniProt Q9H1R3)", "observed": "cell-free assay", "method": "competition with immobilised ligand", "remaining binding [%]": 100}
{"target": "ERN1 (Homo sapiens, UniProt O75460)", "observed": "cell-free assay", "method": "competition with immobilised ligand", "remaining binding [%]": 82}
{"target": "BMP2K (Homo sapiens, UniProt Q9NSY1)", "observed": "cell-free assay", "method": "competition with immobilised ligand", "remaining binding [%]": 100}
{"target": "FGFR1 (Homo sapiens, UniProt P11362)", "observed": "cell-free assay", "method": "competition with immobilised ligand", "remaining binding [%]": 100}
{"target": "CDK19 (Homo sapiens, UniProt Q9BWU1)", "method": "competition binding", "remaining binding [%]": 76}
{"target": "TXK (Homo sapiens, UniProt P42681)", "observed": "binding", "method": "competition with immobilised ligand", "remaining binding [%]": 100}
{"target": "PIK3CA (Homo sapiens, UniProt P42336, Q546K)", "observed": "cell-free assay", "method": "competition with immobilised ligand", "remaining binding [%]": 88}
{"target": "PIK3CA (Homo sapiens, UniProt P42336, E542K)", "observed": "cell-free assay", "method": "competition with immobilised ligand", "remaining binding [%]": 83}
{"target": "SRPK1 (Homo sapiens, UniProt Q96SB4)", "observed": "cell-free assay", "method": "competition with immobilised ligand", "remaining binding [%]": 94}
{"target": "ACVR1B (Homo sapiens, UniProt P36896)", "observed": "cell-free assay", "method": "competition with immobilised ligand", "remaining binding [%]": 100}
{"target": "TAOK3 (Homo sapiens, UniProt Q9H2K8)", "observed": "cell-free assay", "method": "competition with immobilised ligand", "remaining binding [%]": 91}
{"target": "STK36 (Homo sapiens, UniProt Q9NRP7)", "observed": "cell-free assay", "method": "competition with immobilised ligand", "remaining binding [%]": 100}
{"target": "SIK2 (Homo sapiens, UniProt Q9H0K1)", "observed": "cell-free assay", "method": "competition with immobilised ligand", "remaining binding [%]": 100}
{"target": "NEK5 (Homo sapiens, UniProt Q6P3R8)", "observed": "cell-free assay", "method": "competition with immobilised ligand", "remaining binding [%]": 100}
{"target": "MAP3K6 (Homo sapiens, UniProt O95382)", "observed": "cell-free assay", "method": "competition with immobilised ligand", "remaining binding [%]": 82}
{"target": "SBK1 (Homo sapiens, UniProt Q52WX2)", "observed": "cell-free assay", "method": "competition with immobilised ligand", "remaining binding [%]": 95}
{"data": "Sample 3", "SMILES": "Cc1cc2ncc(-c3ccccc3)nc2cc1C", "observed": "enzyme activity", "mode": "inhibitor", "tested at": "0.5 µM", "relative to": "control"}
{"target": "MAPK9 (Homo sapiens, UniProt P45984)", "remaining activity [%]": 104}
{"target": "DAPK1 (Homo sapiens, UniProt P53355)", "remaining activity [%]": 88.4}
{"target": "Cyclin-dependent kinase 5, with p25 (CDK5, Homo sapiens, UniProt Q00535)", "remaining activity [%]": 96.6}
{"target": "CHEK2 (Homo sapiens, UniProt O96017)", "remaining activity [%]": 96.8}
{"target": "GRK3 (Homo sapiens, UniProt P35626)", "remaining activity [%]": 87.4}
{"target": "NEK2 (Homo sapiens, UniProt P51955)", "remaining activity [%]": 75.7}
{"target": "Cyclin-dependent kinase 4, with cyclin D1 (CDK4, Homo sapiens, UniProt P11802)", "remaining activity [%]": 101}
{"target": "DAPK2 (Homo sapiens, UniProt Q9UIK4)", "remaining activity [%]": 92.6}
{"target": "OXSR1 (Homo sapiens, UniProt O95747)", "remaining activity [%]": 85.6}
{"target": "TGFBR1 (Homo sapiens, UniProt P36897)", "remaining activity [%]": 94.7}
{"target": "Protein kinase C beta type, isoform beta-I (PRKCB, Homo sapiens, UniProt P05771)", "remaining activity [%]": 103}
{"target": "cGMP-dependent protein kinase 1, isoform beta (PRKG1, Homo sapiens, UniProt Q13976)", "remaining activity [%]": 93.7}
{"target": "PRKCA (Homo sapiens, UniProt P17252)", "remaining activity [%]": 90.5}
{"target": "PRKACA (Homo sapiens, UniProt P17612)", "remaining activity [%]": 108}
{"target": "MAP3K3 (Homo sapiens, UniProt Q99759)", "remaining activity [%]": 103}
{"target": "IKBKB (Homo sapiens, UniProt O14920)", "remaining activity [%]": 101}
{"target": "Tyrosine-protein kinase Lyn, isoform B (LYN, Homo sapiens, UniProt P07948)", "remaining activity [%]": 100}
{"target": "CAMK2D (Homo sapiens, UniProt Q13557)", "remaining activity [%]": 88.1}
{"target": "TGFBR2 (Homo sapiens, UniProt P37173)", "remaining activity [%]": 130}
{"target": "STK10 (Homo sapiens, UniProt O94804)", "remaining activity [%]": 90.7}
{"target": "IKBKE (Homo sapiens, UniProt Q14164)", "remaining activity [%]": 101}
{"target": "CAMKK2 (Homo sapiens, UniProt Q96RR4)", "remaining activity [%]": 91.8}
{"data": "Sample 4", "species": "mouse", "matrix": "microsomes or S9", "tested at": "2 µM", "time": "0.5 h"}
{"SMILES": "CCNC(=O)Nc1ccc2c(cnn2-c2cc(C(C)=O)c(Cl)cc2Cl)c1", "remaining compound": "1.57%"}
{"SMILES": "CC(C)OCCCN(C)C1CCN(S(=O)(=O)c2ccc3[nH]c(=O)ccc3c2)CC1", "remaining compound": "99.9%"}
{"SMILES": "CCOC(=O)CCCOc1nc(C(C)C)c2c(c1C#N)CCCC2", "remaining compound": "40.4%"}
{"SMILES": "CCc1cc2c3c([nH]c2cc1S(=O)(=O)NCCCN1CCOCC1)CC(C)(C)CC3=O", "remaining compound": "63.9%"}
{"SMILES": "CC(C)(CO)NCc1ccc(-c2cc(Cl)cc(Cl)c2)o1", "remaining compound": "2.3%"}
{"SMILES": "CC1(COc2ccc(Cl)cc2)CC(n2cncn2)C(c2ccc(Cl)cc2)=NO1 (stereo not shown)", "remaining compound": "12.3%"}
{"SMILES": "Clc1cc(Cl)cc(-c2ccc(CNCc3ccncc3)o2)c1", "remaining compound": "5.05%"}
{"note": "Excerpt of the above (sample 3):"}
{"target": "NEK2 (Homo sapiens, UniProt P51955)", "remaining activity [%]": 75.7}
{"target": "TGFBR2 (Homo sapiens, UniProt P37173)", "remaining activity [%]": 130}
{"target": "IKBKB (Homo sapiens, UniProt O14920)", "remaining activity [%]": 101}
{"target": "MAPK9 (Homo sapiens, UniProt P45984)", "remaining activity [%]": 104}
